Measurements collected from several papers.
Numbered parts are unrelated; each lists some results of a single study.

Series 1
Target: Sal-like protein 4, full length isoform B (SALL4, Homo sapiens, UniProt Q9UJQ4-2, residues 1-616)
Method: universal PBM
Molecule type: double-stranded DNA, one strand shown
Medium: in vitro
Tested at: not given
Setting: 8-mer, flanks averaged, mean of replicates
Reading: higher = stronger binding
Strand | E-score
AGCACTCG | -0.274
AGTAAGGC | -0.042
GCATGGAA | -0.065
AACAATCT | 0.206
GAACGCAA | 0.11
ATCACTGG | -0.0114
GGTACACC | -0.234
AAACAGTT | 0.15
ACGGACAC | -0.149
GATCAGTA | 0.0998
ATGTACGA | 0.149
CGGCTCAA | -0.134
ACGGGCAA | -0.0899
CTCGTCTC | -0.128
CGGGACGC | -0.28
CTACGGGA | -0.161
CAAGTAGG | -0.123
CCGTAAGA | -0.167

Series 2
Target: Histone acetyltransferase KAT6A, winged helix 2, GST fusion (KAT6A, Homo sapiens, UniProt Q92794, residues 85-181)
Method: protein binding microarray
Molecule type: double-stranded DNA, one strand shown
Medium: in vitro
Tested at: not given
Setting: 8-mer, flanks averaged, mean of 2 arrays, mostly near background
Reference: not given
Reading: higher = stronger binding
Construct (chain): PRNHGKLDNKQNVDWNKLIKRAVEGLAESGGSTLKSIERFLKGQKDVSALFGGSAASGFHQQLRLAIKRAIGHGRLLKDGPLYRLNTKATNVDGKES
Strand | E-score
CGCCGTTC | 0.047
AGAGGTAA | 0.0331
ATCAACCA | -0.0382
ACGCCATA | -0.101
CCTCCATA | 0.00647
GGAACCCC | -0.054
GTTCTCTA | 0.0169
ATGCTGCC | 0.0981
AGTCACAG | 0.0307
AGTCTGAC | -0.257
CAACCGTG | -0.0385
ACTTACCG | 0.00298
AAAACAAA | 0.101
AGTCATAT | -0.0798
CGTTGAAA | 0.0583
ACGGGCTA | -0.116
ATCGGTAG | 0.0697
AGTCGCTG | -0.0956
CTTATTTA | -0.119
CTATAATA | -0.0326
TATGCGGA | 0.00868
GAGACCCC | -0.129

Series 3
Target: Interferon regulatory factor 7, full length, phosphomimetic (IRF7, Homo sapiens, UniProt Q92985, residues 1-503, S101K/S471D/S472D/S475D/S476D/S477D/S483D/S484D/S487D)
Method: protein-binding microarray
Molecule type: double-stranded DNA, one strand shown
Medium: in vitro
Tested at: 250 nM
Setting: 60-bp whole probe
Together with: salmon DNA 0.4 mg/ml
Reference: random background probes
Reading: higher = stronger binding
Shared flanks, not repeated: GCCTAGCAC … GTCTTGATTCGCTTGACGCTGCTG
Residues (chain): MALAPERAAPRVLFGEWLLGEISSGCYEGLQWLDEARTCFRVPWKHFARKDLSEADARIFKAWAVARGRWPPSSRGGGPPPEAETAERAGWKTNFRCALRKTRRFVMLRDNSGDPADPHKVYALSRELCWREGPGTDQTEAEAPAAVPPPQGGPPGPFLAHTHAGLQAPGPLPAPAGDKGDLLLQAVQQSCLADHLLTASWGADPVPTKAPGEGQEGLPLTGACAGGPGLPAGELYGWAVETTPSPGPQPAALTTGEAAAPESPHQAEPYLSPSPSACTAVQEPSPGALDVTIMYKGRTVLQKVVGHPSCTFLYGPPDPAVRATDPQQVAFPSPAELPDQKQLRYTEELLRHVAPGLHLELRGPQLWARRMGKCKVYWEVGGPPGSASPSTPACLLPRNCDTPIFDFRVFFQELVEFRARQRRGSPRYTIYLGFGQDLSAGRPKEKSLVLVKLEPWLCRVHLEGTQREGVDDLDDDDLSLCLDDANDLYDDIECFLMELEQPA
Strand | log fluorescence [z-score]
ATAAAAGAACTCCTGGGGGAGTGCTAG | 0.0372
TTAGGACTGCTACTGCTATAGTGCTAG | -0.406
TTAGGTATCGGACTGGGTTTGTGCTAG | 0.343
CACGAACTGGGGTATCGAGACGTGCTA | -0.613
GCCGGTTTCCTTCTCCTGACGTGCTAG | 3.24
GACGGATTCGGTCTCGGGACGTGCTAG | 1.27
GTCGGTTTCGGTTTCGGGACGTGCTAG | 14.6
GACGGTTCCGGTTTCGTGACGTGCTAG | 6.97
GTGAGAAATAAGTTTCTTTTGTGCTAG | 0.564
TTATGTTTCGGTTCCGGTTAGTGCTAG | 8.51
TTAGGTATCGGTTTCGGTCAGTGCTAG | 7.15
CCTTGTCCCCTCAGGTATGGGTGCTAG | 0.819
TCAGGTTTCAGATGCGTACTGTGCTAG | 1.18
TCATTTTTTTTTTGGAAACTGTGCTAG | 0.797
TCAAGTCTCAATATTAGACTGTGCTAG | 0.0523
TTAGGTTTCGGATATCGGTTAGTGCTA | 6.01

Series 4
Target: RING finger protein unkempt homolog, zinc fingers 1-6, GST-SBP tag (UNK, Homo sapiens, UniProt Q9C0B0, residues 30-357)
Method: RNA Bind-n-Seq
Molecule type: RNA
Medium: in vitro
Tested at: not given
Setting: RNA with constant flanks, human-mouse chimeric sites, ends assumed
Reference: input RNA pool
Reading: higher = stronger binding
Shared flanks, not repeated: GGGAGUUCUACAGUCCGACGAUC … CAACAGAGGAUUGAGCAUCA
Construct (chain): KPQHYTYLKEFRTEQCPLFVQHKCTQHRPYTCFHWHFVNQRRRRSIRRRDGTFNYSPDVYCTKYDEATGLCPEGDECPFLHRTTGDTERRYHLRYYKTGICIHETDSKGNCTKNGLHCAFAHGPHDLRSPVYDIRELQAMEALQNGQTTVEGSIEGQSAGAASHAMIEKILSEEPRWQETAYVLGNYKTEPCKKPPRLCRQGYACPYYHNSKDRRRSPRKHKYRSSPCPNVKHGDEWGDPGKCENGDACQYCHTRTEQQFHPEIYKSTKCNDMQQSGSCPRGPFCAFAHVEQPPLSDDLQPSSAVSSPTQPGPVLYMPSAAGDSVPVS
Strand | bound/input enrichment
CUGUGUGUGCUGAAUAAAUGGCUUGUAAAGAAGUUUUCCAAGUUGUAAACCCAUGCUUCCCUUAGAGUUGCUGCAAAAUGUUCUUCCUGAUAUUGAUUUUAUUUGUUAACUGAAGGUCUC | 0.624 ratio
CUGAAAAACACAGAUAUCAAAGUUGUUGACUUUGGAAGUGCAACAUAUGAUGAUGAACAUCACAGUACUUUGGUGUCUACCCGGCACUACAGAGCUCCCGAGGUCAUUUUGGCUCUAGGU | 0.616 ratio
GUUCGGCUCUGGGAUCAUGCCACAAUGACAGAAGUGAAAUCUCUGAAUUUUAAUAUGUCUGUUAGUAGUAUGGAAUAUAUUCCUGAAGGAGAGAUUUUGGUUAUUACUUAUGGACGAUCU | 0.705 ratio
GCGGCAGAAUCAUGGAGGACAUAAUGCAGCUCCCCAAGUCGCGCAUCAACGCCAGCAUGUUACCACAGUAUAUCGACCGGCCCGUGUGCUUCGUAGGGAAGCUGGAAAAGAUUCAUCCCA | 0.0863 ratio
CUUAAUGUUAAUAUUUUUGAAUAAAUGAAGCUAAAAUGUCUGCUUUUGGUACAACACGCAUUAAUAAAAGGUUAAGUAAGUUUUGUUACUGAAGUACUAUUUAACAUCUCAGAAAAAAAC | 0.687 ratio
GCAGGAUCUUCUAAGUACCAGUGGGACAUUAUGAAAUCCCUUGGCCUCUCUGAUGACGAGAUAGUAAAGUUUUCUGAAGCAGAGCACUGGCUUGAUUAUUUCCCACCACUGGCCGUUCAG | 0.178 ratio
UAAGUUAUUUUGUACAGUAAGUUAUUUUCUUAACAUUUUUAUAUUGCCAUGUUUAUUUUGUUUGGGUGCUUUAUUAAAUUAAGUACAUAGCUAAGGUAAUGAACAUCUUUUUCAGUAAUU | 1.71 ratio
AAAGCCCAAGUAUUUUGAAAAAACUCGAACAGAUUUGACAAGGGUAGCCAGCUUGGAGUCUAGCAACUUGCCAAUGUUGCUUACCAACUGGGGGCUUGUUUUUCUUUCCCUUCCUUAAAU | 0.218 ratio
ACUCUUGACUCUUUCCAUCCUCUUCCUUUCCCUCUUGAUCUUCAAGGCCAUGAAUCCCAAAAUAACAGUCUUAGUGGCUAGCACCCAAACAGAGGUGGAAUAAAUCCAAACUGACAACUC | 0.79 ratio
GUACUGCAGCAGCAGGGAAAACUGCAGGAAGCUCUGAUGCACUAUAAGGAGGCUAUUCGAAUCAGUCCUACCUUUGCUGAUGCCUACUCUAAUAUGGGAAACACUCUAAAGGAGAUGCAG | 0.193 ratio
CUCAGAGAUGUGGCAUAUCAGUAUGUGAAAAAGGGGUCUCGUAUAUUUGUGGAAGGGAAAGUGGACUAUGGCGAGUACAUGGAUAAAAACAAUGUGAGGCGGCAAGCAACAACAAUCAUA | 0.35 ratio

Series 5
Target: RNA binding protein fox-1 homolog 2, RRM domain, GST-SBP tag (RBFOX2, Homo sapiens, UniProt O43251-10, residues 100-194)
Method: RNA Bind-n-Seq
Molecule type: RNA
Medium: in vitro
Tested at: 365 nM
Setting: natural RNA segment, single round, ends assumed
Reference: no-protein control
Reading: higher = stronger binding
Shared flanks, not repeated: GGGAGUUCUACAGUCCGACGAUC … UGGAAUUCUCGGGUGCCAA
Residues (chain): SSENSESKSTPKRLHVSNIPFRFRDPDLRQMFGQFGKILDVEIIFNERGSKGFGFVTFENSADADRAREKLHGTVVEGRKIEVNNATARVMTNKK
Strand | RBNS enrichment (R)
UGUUUUUAAUGUGCAGGUAUUGAAUUAUAUGGUCUGACUUAAAUCAUAACUAGACUUGAGUGGGCUGAAUAAACCACUUCACUAACUUGAAGUUCAAAAGGAUGGAAAAU | 0.331
UUAAGUAUGGGAACAGACUGAAAUGGUGUUUCAACCUGCAAGAGACAGAAGCAUAGACAAGUAUAUGAGCCCUUAUGUCCUUAAUGCCAAUCAACUAGAUUGACCUAGGU | 0.401
CAACACAAUCAGCGGGUACUACCUGUGGCCCCCAACUCCUGUCACACUGGCUAUUGGUGGUGACUACUUUCUCAAGCCCUGGCUCCCCCAAGACAGUCUUUCCUAACUGC | 0.335
UGUGAAGGGAUUGCACCAAGCCACAUUCACUCUCUCUGUGGCCUUUCUUCCUCUGGGCAAAGAAGGGCUUCCAGUGGCCUUUCCUCACUCUGUAGUGUUUGUGGGGAUAG | 0.506
UAUCAGCAGCAACAACUGUCAGUUCAUCCUGCAUGGGAAAAAUGUUGGAAUGGGAGUCUGAAAUGGGGCUACUGUUUCAGUCCUAAUGUGCUGUGUGACAUUGGGACAAC | 0.797
UAAUACAUCUACCUUCCCUUAUACUUUCUUCUAAGGCCUGAUUUUCUUUGCUUGGGAAGUGGAUUAAUCUUAUCACUGGUCAUUUAGAGGAACCAAUGCCAAACCCCAUA | 0.805
ACACCCUUAAGUAUUUAUAUUCUUUAAUUAUCUGACCCACAAGGAGGGACCUCGGCUUCUUGAGGCAAAAGGCACUAGUACUUAAAGUACUUUCUGUGGCGUGACCAAUC | 0.264
CCAAGUGCCUGAUACUCCCUUACACUGAAUCAUGUUAUGAUUUAUAGAAAUACCUUUCCUGUAGCUUUUAUAGUCAUUGUUUUUCAAAGACGAUAUACCAGCCCUCACCC | 0.604
GCUCCUUUGUAAGCUUCAGGCCACACCCACCCCCUCAGUCCAUAUCUGCACUUGCUCAUAGGCCGGUUCCUUUUAUUUGAAUAAUAAAUAAAGCUAGUUCUAUUGAAAUG | 0.929
UGCUCGUGUGGCUGGAAGCGCUGUCGAUAAGCUUCACGCACUGGCUUGCCAGUUCUUCAGCUCUAGGACUUGUAGCUUUAAGCAAACGGUGUGGCAUGGGUUGAGUGUGG | 0.627
ACAGCCCCUGCCCUGCCUCUGAGGGCCCACCAGCCUGUGCUGCAUACCCACCGCCCAGCUUCUCCCUGAGGGCCCACCAGCCUGUGCUGCAUACCCACCGCCCAGCUUCU | 0.973
UGAAGGGCGAUGCCUCGCCCGAGGCUUUGGGCUGCUGCACUGCAUGCUGGGACUGCUCCUACUCUCUGUCCCACCCCUCACCCAGCUGUGGUCCGGCUUUGGGAGAGUGG | 8.66

Repeated from above (series 5):
Strand | RBNS enrichment (R)
UAAUACAUCUACCUUCCCUUAUACUUUCUUCUAAGGCCUGAUUUUCUUUGCUUGGGAAGUGGAUUAAUCUUAUCACUGGUCAUUUAGAGGAACCAAUGCCAAACCCCAUA | 0.805
ACACCCUUAAGUAUUUAUAUUCUUUAAUUAUCUGACCCACAAGGAGGGACCUCGGCUUCUUGAGGCAAAAGGCACUAGUACUUAAAGUACUUUCUGUGGCGUGACCAAUC | 0.264
CCAAGUGCCUGAUACUCCCUUACACUGAAUCAUGUUAUGAUUUAUAGAAAUACCUUUCCUGUAGCUUUUAUAGUCAUUGUUUUUCAAAGACGAUAUACCAGCCCUCACCC | 0.604
GCUCCUUUGUAAGCUUCAGGCCACACCCACCCCCUCAGUCCAUAUCUGCACUUGCUCAUAGGCCGGUUCCUUUUAUUUGAAUAAUAAAUAAAGCUAGUUCUAUUGAAAUG | 0.929
UGCUCGUGUGGCUGGAAGCGCUGUCGAUAAGCUUCACGCACUGGCUUGCCAGUUCUUCAGCUCUAGGACUUGUAGCUUUAAGCAAACGGUGUGGCAUGGGUUGAGUGUGG | 0.627
ACAGCCCCUGCCCUGCCUCUGAGGGCCCACCAGCCUGUGCUGCAUACCCACCGCCCAGCUUCUCCCUGAGGGCCCACCAGCCUGUGCUGCAUACCCACCGCCCAGCUUCU | 0.973
UGAAGGGCGAUGCCUCGCCCGAGGCUUUGGGCUGCUGCACUGCAUGCUGGGACUGCUCCUACUCUCUGUCCCACCCCUCACCCAGCUGUGGUCCGGCUUUGGGAGAGUGG | 8.66
